Published values pooled from the literature.
Protocols differ between the studies behind these lines. “And” joins repeats or separate records; there may be more than shown. Numbers after ± are the reported error.
Chain of UniProt P20813 (whole entry, looked up): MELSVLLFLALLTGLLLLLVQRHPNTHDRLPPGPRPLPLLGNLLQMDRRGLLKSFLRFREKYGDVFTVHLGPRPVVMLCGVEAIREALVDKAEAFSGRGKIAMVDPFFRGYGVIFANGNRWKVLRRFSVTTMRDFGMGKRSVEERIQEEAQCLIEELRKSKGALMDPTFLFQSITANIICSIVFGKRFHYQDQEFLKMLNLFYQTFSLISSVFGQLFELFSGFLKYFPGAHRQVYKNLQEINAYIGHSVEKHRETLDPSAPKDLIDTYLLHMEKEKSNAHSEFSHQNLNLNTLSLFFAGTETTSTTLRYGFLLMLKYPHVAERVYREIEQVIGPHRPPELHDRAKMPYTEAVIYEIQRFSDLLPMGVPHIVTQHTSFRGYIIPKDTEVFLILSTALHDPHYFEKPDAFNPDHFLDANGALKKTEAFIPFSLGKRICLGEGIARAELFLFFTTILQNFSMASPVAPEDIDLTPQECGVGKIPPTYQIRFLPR

CNC(=O)C1CCCN(C(=O)C2CC3CCC2N3C(=O)[C@@H]2C[C@@H](O)CN2C(=O)NCc2cccc(Cl)c2F)C1 (mixture of isomers) — remaining activity (Cytochrome P450 2B6 (CYP2B6, Homo sapiens, UniProt P20813); preincubation without NADPH; human; 0.206 µM; baseline: negative control): 105% and 99.9%
CCCCC(CSS(=O)(=O)O)NCC(C)C (stereo not drawn) — body weight (Schistosoma mansoni; perfusion day 62; infected Swiss Webster mice; 100 mg/kg): 32.2 g and 36.7 g and 29 g
COC(=O)Nc1nc2cc(C(O)c3ccc(F)cc3)ccc2[nH]1 (stereo not drawn) — revertants (Salmonella typhimurium; Ames preincubation test; TA1537; 54.7 µg/plate, without S9): 11.3 revertants/plate
CC(C)OCCOCc1ccc(OCC(O)CN(N=O)C(C)C)cc1 (stereo not drawn) — revertant fold increase (Salmonella typhimurium; Ames test; TA1535; 15.8 µg/plate, 30 % hamster S9; baseline: solvent control): 1.5 fold
N#C[C@@H]1CCCN1C(=O)CNC(=O)c1ccnc2ccc(OCCCN3CCN(C(=O)CCc4ccc5c(c4)CN4CCN6CC(=O)[O][68Ga-]([O]C(=O)C4)([O]5)[O]c4ccc(CCC(=O)N5CCN(CCCOc7ccc8nccc(C(=O)NCC(=O)N9CCC[C@H]9C#N)c8c7)CC5)cc4C6)CC3)cc12 — tracer uptake (U-87 MG tumour model; host not given, pancreas; 2 h, tumour-bearing): 2.66 %ID/g
O=C1NC2(CC2)COc2ncc(F)cc2[C@H]2COCCN2c2ccn3ncc1c3n2 — polyploid cells (CHL; chromosomal aberration test; 300 µg/mL, 4 h, with rat liver S9): 0%
Cc1cc(=O)c2c(O)c3c(O[C@@H]4O[C@H](CO)[C@@H](O)[C@H](O)[C@H]4O)cc(O)cc3cc2o1 — cell viability (HK-2 co-cultured with HepaRG; MTT; 66.67 µM, 24 h; baseline: untreated control): 83.1 ± 11.8%
CCCCNC(CCCC)CSS(=O)(=O)O (stereo not drawn) — body weight (Schistosoma mansoni; perfusion day 35; infected Swiss Webster mice; 100 mg/kg): 28.7 g and 27.9 g and 27.6 g
N#C[C@@H]1CC(F)(F)CN1C(=O)CNC(=O)c1ccnc2c(NC(=O)[C@H](CCCCNC(=O)CCOCCOCCOCCOCCOCCOCCNC(=O)CN3CCN(CC(=O)[O-])CCN(CC(=O)[O-])CCN(CC(=O)[O-])CC3)NC(=O)CCCc3ccc(I)cc3)cccc12.[177Lu+3] — tracer uptake (U-87 MG tumour model; host not given, liver; 24 h, tumour-bearing): 3.97 %ID/g
O=C1C2CC3CC1CC(C(=O)N1CCN(c4ccc([N+](=O)[O-])c5ncccc45)CC1)(C3)C2 — mean revertant colonies (Salmonella typhimurium; Ames test; TA97a; 0.05 µg/well, with S9): 22 colonies/well
CCN(CC)CC#CCNc1ccnc2cc(Cl)ccc12 — revertants per well (Salmonella typhimurium; mini-Ames test; TA97a; 1000.0 µg/well, without S9): 0
C=C(NC(=O)c1csc(-c2nc3c(cc2O)-c2nc(cs2)C(=O)NC(C(C)O)C(=O)NC(=C(C)OC)c2nc(cs2)C(=O)NC2c4nc(cs4)C(=O)NC(COC(=O)c4c5c6c(cccc6n4O)COC(=O)C(OC4CC(C)(O)C(N(C)C)C(C)O4)C2OC5)c2nc-3cs2)n1)C(N)=O (stereo not drawn) — Tmax (male Sprague-Dawley rat, plasma; intravenous, 6 mg/kg, single dose, infusion): 6 min

Repeated from above:
Cc1cc(=O)c2c(O)c3c(O[C@@H]4O[C@H](CO)[C@@H](O)[C@H](O)[C@H]4O)cc(O)cc3cc2o1 — cell viability (HK-2 co-cultured with HepaRG; MTT; 66.67 µM, 24 h; baseline: untreated control): 83.1 ± 11.8%
